Results collected from several papers.
± gives the spread as reported.
HTR2B: 5-hydroxytryptamine receptor 2B (HTR2B, Homo sapiens, UniProt P41595)
UniProt P41595, sequence (whole entry, looked up): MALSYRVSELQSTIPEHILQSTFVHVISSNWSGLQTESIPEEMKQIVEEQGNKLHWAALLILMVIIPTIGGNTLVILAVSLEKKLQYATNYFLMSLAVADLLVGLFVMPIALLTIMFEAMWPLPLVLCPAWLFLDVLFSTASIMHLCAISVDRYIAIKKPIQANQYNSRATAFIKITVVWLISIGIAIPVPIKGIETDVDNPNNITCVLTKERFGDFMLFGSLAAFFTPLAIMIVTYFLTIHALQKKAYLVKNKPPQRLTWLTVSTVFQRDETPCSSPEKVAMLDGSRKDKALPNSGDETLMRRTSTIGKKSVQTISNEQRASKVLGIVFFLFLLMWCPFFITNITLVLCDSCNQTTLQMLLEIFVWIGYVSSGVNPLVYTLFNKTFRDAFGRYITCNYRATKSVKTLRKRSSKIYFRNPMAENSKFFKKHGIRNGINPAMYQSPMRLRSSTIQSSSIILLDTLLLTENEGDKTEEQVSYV
ABCG2: Broad substrate specificity ATP-binding cassette transporter ABCG2 (ABCG2, Homo sapiens, UniProt Q9UNQ0)
UniProt Q9UNQ0, sequence (whole entry, looked up): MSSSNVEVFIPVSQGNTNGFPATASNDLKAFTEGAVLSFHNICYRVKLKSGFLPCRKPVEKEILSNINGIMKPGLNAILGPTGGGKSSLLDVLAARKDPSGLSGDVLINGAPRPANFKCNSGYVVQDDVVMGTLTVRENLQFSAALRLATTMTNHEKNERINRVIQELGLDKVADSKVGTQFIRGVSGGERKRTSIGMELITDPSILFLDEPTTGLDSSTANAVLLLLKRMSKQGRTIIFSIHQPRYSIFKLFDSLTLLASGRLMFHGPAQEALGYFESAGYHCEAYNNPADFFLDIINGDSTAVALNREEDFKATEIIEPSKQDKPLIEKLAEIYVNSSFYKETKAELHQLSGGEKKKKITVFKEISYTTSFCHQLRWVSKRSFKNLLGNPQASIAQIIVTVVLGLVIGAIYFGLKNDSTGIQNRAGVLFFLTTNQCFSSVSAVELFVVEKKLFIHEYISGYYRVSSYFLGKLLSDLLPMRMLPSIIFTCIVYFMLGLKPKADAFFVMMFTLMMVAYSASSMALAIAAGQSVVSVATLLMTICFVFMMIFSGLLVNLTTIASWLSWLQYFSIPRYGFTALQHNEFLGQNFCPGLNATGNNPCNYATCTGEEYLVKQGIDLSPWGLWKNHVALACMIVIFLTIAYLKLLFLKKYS
ribH: 6,7-dimethyl-8-ribityllumazine synthase (ribH, Mycobacterium tuberculosis, UniProt P9WHE9)
UniProt P9WHE9, sequence (whole entry, looked up): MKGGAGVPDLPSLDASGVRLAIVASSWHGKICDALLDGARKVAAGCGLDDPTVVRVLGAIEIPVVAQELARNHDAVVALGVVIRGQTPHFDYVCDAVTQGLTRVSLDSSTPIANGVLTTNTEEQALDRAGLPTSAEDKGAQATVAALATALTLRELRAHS
CHRM1: Muscarinic acetylcholine receptor M1 (CHRM1, Homo sapiens, UniProt P11229)
UniProt P11229, sequence (whole entry, looked up): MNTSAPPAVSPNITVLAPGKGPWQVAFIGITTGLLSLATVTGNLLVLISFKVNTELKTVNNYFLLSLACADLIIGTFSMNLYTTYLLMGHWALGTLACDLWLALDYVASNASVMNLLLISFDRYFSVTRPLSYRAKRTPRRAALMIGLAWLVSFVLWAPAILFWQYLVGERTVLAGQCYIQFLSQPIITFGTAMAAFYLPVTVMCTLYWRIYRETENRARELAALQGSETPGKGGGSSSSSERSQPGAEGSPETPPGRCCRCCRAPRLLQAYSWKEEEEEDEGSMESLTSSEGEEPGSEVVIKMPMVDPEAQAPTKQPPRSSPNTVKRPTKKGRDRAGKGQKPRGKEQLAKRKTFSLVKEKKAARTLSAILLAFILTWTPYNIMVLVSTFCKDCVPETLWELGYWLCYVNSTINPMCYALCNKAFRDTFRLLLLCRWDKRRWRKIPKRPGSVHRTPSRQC
RIPK1: Receptor-interacting serine/threonine-protein kinase 1 (RIPK1, Homo sapiens, UniProt Q13546)
UniProt Q13546, sequence (whole entry, looked up): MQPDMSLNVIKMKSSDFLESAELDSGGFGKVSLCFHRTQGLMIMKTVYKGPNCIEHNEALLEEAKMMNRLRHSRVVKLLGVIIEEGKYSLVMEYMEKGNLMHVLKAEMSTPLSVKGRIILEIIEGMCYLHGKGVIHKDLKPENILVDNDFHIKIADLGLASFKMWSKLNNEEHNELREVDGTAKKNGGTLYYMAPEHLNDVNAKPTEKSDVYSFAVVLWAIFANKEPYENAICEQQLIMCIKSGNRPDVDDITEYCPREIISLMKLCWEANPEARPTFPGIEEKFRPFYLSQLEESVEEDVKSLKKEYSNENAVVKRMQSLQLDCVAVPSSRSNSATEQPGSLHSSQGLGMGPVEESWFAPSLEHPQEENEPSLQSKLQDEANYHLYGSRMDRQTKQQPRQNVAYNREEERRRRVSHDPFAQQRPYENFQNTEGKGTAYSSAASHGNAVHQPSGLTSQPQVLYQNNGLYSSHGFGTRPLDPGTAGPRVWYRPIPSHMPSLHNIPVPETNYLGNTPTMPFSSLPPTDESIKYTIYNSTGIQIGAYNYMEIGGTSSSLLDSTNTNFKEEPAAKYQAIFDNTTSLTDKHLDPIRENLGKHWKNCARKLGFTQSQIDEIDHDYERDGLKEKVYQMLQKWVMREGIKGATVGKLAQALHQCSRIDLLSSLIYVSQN
MAPK1: Mitogen-activated protein kinase 1 (MAPK1, Homo sapiens, UniProt P28482)
UniProt P28482, sequence (whole entry, looked up): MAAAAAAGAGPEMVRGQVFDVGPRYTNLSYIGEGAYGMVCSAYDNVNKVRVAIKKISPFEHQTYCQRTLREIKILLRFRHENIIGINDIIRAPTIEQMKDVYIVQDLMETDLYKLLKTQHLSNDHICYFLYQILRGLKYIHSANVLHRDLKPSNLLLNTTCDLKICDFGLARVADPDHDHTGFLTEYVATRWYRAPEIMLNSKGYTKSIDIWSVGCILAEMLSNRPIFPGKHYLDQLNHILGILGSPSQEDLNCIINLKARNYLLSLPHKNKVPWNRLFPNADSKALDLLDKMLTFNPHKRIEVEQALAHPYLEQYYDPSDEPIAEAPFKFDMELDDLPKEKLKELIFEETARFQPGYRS
CYP2A6: Cytochrome P450 2A6 (CYP2A6, Homo sapiens, UniProt P11509)
UniProt P11509, sequence (whole entry, looked up): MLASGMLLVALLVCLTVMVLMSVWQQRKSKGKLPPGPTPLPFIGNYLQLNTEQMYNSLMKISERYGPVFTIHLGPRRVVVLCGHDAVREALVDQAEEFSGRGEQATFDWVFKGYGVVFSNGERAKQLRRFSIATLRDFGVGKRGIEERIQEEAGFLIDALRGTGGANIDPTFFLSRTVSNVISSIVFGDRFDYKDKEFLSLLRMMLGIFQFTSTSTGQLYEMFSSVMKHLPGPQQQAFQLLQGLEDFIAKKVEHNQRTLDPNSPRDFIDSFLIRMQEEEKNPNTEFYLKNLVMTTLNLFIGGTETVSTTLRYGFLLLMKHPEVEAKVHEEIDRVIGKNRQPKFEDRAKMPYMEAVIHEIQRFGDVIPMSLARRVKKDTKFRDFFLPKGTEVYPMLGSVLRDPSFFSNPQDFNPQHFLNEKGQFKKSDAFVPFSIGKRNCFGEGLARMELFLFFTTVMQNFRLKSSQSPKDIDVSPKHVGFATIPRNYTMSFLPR
TSPO A147T: Translocator protein, A147T (TSPO, Homo sapiens, UniProt P30536)
UniProt P30536, sequence (whole entry, unmodified, looked up): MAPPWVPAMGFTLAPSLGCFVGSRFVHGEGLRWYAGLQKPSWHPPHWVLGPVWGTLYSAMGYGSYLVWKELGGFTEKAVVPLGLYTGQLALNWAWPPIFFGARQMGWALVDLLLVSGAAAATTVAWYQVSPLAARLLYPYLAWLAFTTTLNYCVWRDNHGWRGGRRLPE
ANPEP: Aminopeptidase N (ANPEP, Sus scrofa, UniProt P15145)
UniProt P15145, sequence (whole entry, looked up): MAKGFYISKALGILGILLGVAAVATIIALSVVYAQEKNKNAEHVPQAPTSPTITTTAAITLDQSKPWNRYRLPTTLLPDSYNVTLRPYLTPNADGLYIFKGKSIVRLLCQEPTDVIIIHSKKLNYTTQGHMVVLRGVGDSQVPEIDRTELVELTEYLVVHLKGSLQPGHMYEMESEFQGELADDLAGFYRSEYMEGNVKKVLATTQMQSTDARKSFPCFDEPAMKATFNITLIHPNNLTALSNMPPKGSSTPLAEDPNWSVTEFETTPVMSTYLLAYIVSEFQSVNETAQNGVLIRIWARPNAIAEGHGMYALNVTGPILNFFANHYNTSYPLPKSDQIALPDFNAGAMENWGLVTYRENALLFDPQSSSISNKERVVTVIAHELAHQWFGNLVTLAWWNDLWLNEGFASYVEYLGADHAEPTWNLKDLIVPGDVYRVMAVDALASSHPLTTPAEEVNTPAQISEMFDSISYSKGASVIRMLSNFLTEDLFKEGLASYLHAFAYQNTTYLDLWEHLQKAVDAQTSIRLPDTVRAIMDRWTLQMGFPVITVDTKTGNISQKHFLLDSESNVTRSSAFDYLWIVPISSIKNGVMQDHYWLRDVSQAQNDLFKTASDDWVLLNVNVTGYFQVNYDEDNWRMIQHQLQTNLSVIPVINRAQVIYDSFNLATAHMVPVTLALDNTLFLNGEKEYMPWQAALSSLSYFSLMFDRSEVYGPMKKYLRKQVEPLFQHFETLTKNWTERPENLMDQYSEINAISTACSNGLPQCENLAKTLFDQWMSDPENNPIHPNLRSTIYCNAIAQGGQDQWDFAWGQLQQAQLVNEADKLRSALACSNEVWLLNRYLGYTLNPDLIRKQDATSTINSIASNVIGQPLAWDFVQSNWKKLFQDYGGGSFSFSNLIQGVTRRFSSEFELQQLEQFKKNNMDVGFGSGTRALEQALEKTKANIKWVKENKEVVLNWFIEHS
UniProt Q9WYT0, sequence (whole entry, looked up): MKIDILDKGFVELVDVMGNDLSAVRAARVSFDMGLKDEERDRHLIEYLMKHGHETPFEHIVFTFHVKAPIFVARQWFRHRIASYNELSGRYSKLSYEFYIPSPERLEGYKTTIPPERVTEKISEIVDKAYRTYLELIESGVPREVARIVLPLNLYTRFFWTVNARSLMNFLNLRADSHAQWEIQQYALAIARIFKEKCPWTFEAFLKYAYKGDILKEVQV
UniProt O60218, sequence (whole entry, looked up): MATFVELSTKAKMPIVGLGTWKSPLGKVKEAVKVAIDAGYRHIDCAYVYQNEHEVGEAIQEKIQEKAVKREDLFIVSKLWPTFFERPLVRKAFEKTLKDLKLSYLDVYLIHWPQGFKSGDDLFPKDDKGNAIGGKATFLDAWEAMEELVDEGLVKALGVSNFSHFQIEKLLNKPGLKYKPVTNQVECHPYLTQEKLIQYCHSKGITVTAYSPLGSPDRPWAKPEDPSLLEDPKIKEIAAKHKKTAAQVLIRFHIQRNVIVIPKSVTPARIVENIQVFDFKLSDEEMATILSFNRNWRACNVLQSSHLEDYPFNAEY

Brc1ccc(-c2cc3ccccc3[nH]2)cc1
viability (RAW264.7; sulforhodamine B; 50 µM, 20 h; baseline: vehicle): 69.3 ± 2.7%

CCCCSC[C@H]1CN(Cc2c[nH]c3c(N)ncnc23)C[C@@H]1O
Ki (MTA/SAH nucleosidase (Campylobacter jejuni subsp. jejuni, UniProt Z9IB28FKP7); enzyme activity, inhibitor; slow-onset tight binding): 0.00075 µM

CC1(CCN2CCc3ccccc3C2)Cc2cc(Cl)ccc2C1=O (stereo not drawn)
Ki (HTR2B; radioligand binding; together with: [3H]LSD): 0.162 µM

CC(=O)N1CCN(c2cc(-c3ccco3)nc3cc(-c4cccc(Cl)c4)nn23)CC1
IC50 (ABCG2; JC-1 dye efflux, inhibitor, flow cytometry; ABCG2-overexpressing cells; together with: JC-1 1 µM): 0.56 µM

CCC#CC[C@H](C)[C@H](O)/C=C/[C@H]1CC(F)(F)C(=O)N1CCCCCCC(=O)O
Ki (Ptger4 (Rattus norvegicus, UniProt P43114); ligand displacement, radioligand): 0.00024 µM

Nc1ccc(C(=O)O)cc1
Ki (mushroom tyrosinase; diphenolase activity, inhibitor; pH 6.8, 20 °C, together with: caffeic acid substrate): 20 µM

O=c1[nH]c(/C=C/c2ccc[nH]2)c([N+](=O)[O-])c(=O)[nH]1
Ki (ribH; enzyme activity, inhibitor; pH 7.0): 30 ± 8 µM

COc1ccncc1C=O
Ki (Nicotinamidase (Plasmodium falciparum, UniProt O97284); competitive inhibitor; together with: nicotinamide): 1 ± 0.11 µM

O=C(O)c1ccccn1
Ki (mushroom tyrosinase; monophenolase activity, inhibitor; pH 6.8, 20 °C, together with: p-coumaric acid substrate): 1970 µM

O=C(O)c1ccc(/C=C/c2[nH]c(=O)[nH]c(=O)c2[N+](=O)[O-])cc1
Ki (ribH; enzyme activity, inhibitor; pH 7.0): 35 ± 10 µM

O=C(c1ccc(COc2ccccc2-c2cc(=O)n(C3CCCCC3O)cn2)cc1)N1CCCCC1 (stereo not drawn)
ΔpEC50 of ACh (CHRM1; positive allosteric modulator, IP1 accumulation; CHO-M1 cells; 1 µM, 60 min, 37 °C, together with: ACh; baseline: ACh alone, higher = stronger potentiation): 0.08 ± 0.12 log units

COc1ccc(/C=C/c2[nH]c(=O)[nH]c(=O)c2[N+](=O)[O-])cc1O
Ki (ribH; enzyme activity, inhibitor; pH 7.0): 52 ± 19 µM

Cc1cccc(Nc2cc(Cl)nc(SCC(=O)O)n2)c1C
Ki (AKR1B10 (Homo sapiens, UniProt O60218); enzyme activity, inhibitor): 45 µM

COc1ccc2c(c1)C1=NN(C(C)=O)C(c3ccc(F)cc3)C1CC2 (stereo not drawn)
Ki (RIPK1; binding, fluorescence polarisation competition; together with: fluorescein-necrostatin-1): 4.5 ± 0.9 µM

C#CCCOC(=O)[C@]1(C)C=C(C(=O)OC(C)(C)C)C(=O)CC1
Ki (MAPK1; ligand displacement, FP): 1.4 µM

CCCCCCCCCC=O
Ki (CYP2A6; inhibitor; 30 min, pH 7.4): 106 ± 29 µM

O=c1[nH]c(/C=C/c2ccc3ccccc3c2)c([N+](=O)[O-])c(=O)[nH]1
Ki (ribH; enzyme activity, inhibitor; pH 7.0): 11 ± 3 µM

CCCCCCC=O
Ki (CYP2A6; inhibitor; 30 min, pH 7.4): 16 ± 1 µM

CCN(Cc1ccccc1)C(=O)Cn1c2ccccc2c2cc(Br)ccc21
Ki (TSPO A147T; radioligand binding; together with: [3H]PK11195): 0.123 ± 0.0163 µM

NC(=O)[C@H](CO)NC(=O)CCCCCn1cc(COc2cc(OCc3cn(CCCCCC(=O)N[C@@H](CO)C(N)=O)nn3)cc(OCc3cn(CCCCCC(=O)N[C@@H](CO)C(N)=O)nn3)c2)nn1
Ki (MC4R (Homo sapiens, UniProt P32245); competitive binding; HEK293 expressing MC4R and CCK2R): > 10 µM

CCOC(=O)C1(CCN2CCc3ccccc3C2)Cc2cc(Cl)ccc2C1=O (stereo not drawn)
Ki (HTR2B; ligand displacement, radioligand): 0.0162 µM

CC(=O)O[C@@H]1CC[C@@]2(C)[C@H](CC[C@@H]3[C@@H]2CC[C@]2(C)[C@@H]([C@H](C)CCC(=O)O)CC[C@@H]32)C1
Ki (Ephrin type-A receptor 2, ectodomain with ephrin-A1 (Mus musculus, UniProt Q03145); ephrin-A1 binding, inhibitor, ELISA, Schild analysis): 88 ± 11 µM

COC(=O)C(=O)Nc1c(OC[C@H](O)[C@H](O)[C@H](O)CO)[nH]c(=O)[nH]c1=O
Ki (ribH; inhibitor; pH 7.0, together with: substrate 1 varied, other substrate 2 constant): 273 ± 55 µM

CCCCC/C=C/C=O
Ki (CYP2A6; inhibitor; 30 min, pH 7.4): 7 ± 1 µM

O=P(O)(O)OC[C@H]1N[C@H](COP(=O)(O)O)[C@@H](O)[C@@H]1O
Ki (Uridine 5'-monophosphate synthase, OPRT domain (UMPS, Homo sapiens, UniProt P11172); enzyme activity, inhibitor; pH 8.0, 25 °C, together with: orotidine 5'-monophosphate 500 µM, pyrophosphate 1 mM): > 200 µM

COc1ccc(/C=C/c2[nH]c(=O)[nH]c(=O)c2[N+](=O)[O-])c(OC)c1OC
Ki (ribH; enzyme activity, inhibitor; pH 7.0): 48 ± 23 µM

CCN(Cc1ccccc1)C(=O)Cn1c(=O)n(C)c2cnc(-c3ccccc3)nc21
Ki (TSPO A147T; radioligand binding; together with: [3H]PK11195): 0.0313 ± 0.0036 µM

FC(F)(F)Oc1ccc(-c2cc3ccccc3[nH]2)cc1
inhibition (RAW264.7; NO release, inhibitor, Griess; 50 µM, 20 h, LPS-stimulated): 31.2%

Cc1cccc(NC(=O)c2ccc(C#N)cc2)n1
Ki (Grm5 (Rattus norvegicus, UniProt P31424); ligand displacement, radioligand; cell membranes): > 10 µM

5,10-methylenetetrahydrofolate
Ki (thyX (Thermotoga maritima, UniProt Q9WYT0); oxidase activity, competitive inhibitor; pH 7.9, 37 °C, together with: O2 competitor, NADPH 100 µM, dUMP 100 µM): 1.9 ± 0.3 µM

CCCCCCCCCCCCNC(=O)[C@@H]1CCCN1C(=O)[C@@H]1CCCN1
Ki (Plasma kallikrein (KLKB1, Homo sapiens, UniProt P03952); enzyme activity, inhibitor): > 1000 µM

CN1C(=O)C(Cc2c[nH]c3ccccc23)NC1=S (stereo not drawn)
Ki (RIPK1; binding, fluorescence polarisation competition; together with: fluorescein-necrostatin-1): 4.1 ± 0.3 µM

O=c1[nH]c(/C=C/c2ccc(O)cc2)c([N+](=O)[O-])c(=O)[nH]1
Ki (ribH; enzyme activity, inhibitor; pH 7.0): 12 ± 5 µM

Nc1nc2[nH]c(CCCc3ccc(C(=O)N[C@@H](CCC(=O)O)C(=O)O)s3)cc2c(=O)[nH]1
Ki (SHMT2 (Homo sapiens, UniProt P34897); enzyme activity, inhibitor, fluorescence): 188 µM

C[C@@H](O[C@H]1OCCN(Cc2n[nH]c(=O)[nH]2)[C@H]1c1ccc(F)cc1)c1cc(C(F)(F)F)cc(C(F)(F)F)c1
Ki (UGT2B7 (Homo sapiens, UniProt P16662); enzyme activity, inhibitor; 30 min, pH 7.5): 15.5 µM

Nc1nc2c(ncn2[C@@H]2O[C@@H]3COP(=O)(O)O[C@H]3[C@H]2O)c(=O)[nH]1
Ki (Cyclic nucleotide-gated potassium channel (Spirochaeta thermophila, UniProt G0GA88); Tl+ flux, inhibitor, stopped-flow fluorescence; liposomes; together with: cAMP 200 µM): 6 µM

O=C(CCl)Nc1c(NC[C@H](O)[C@H](O)[C@H](O)CO)[nH]c(=O)[nH]c1=O
Ki (ribH; inhibitor; pH 7.0, together with: substrate 1 varied, other substrate 2 constant): 57 ± 22 µM

O=C(NNC(=NS(=O)(=O)c1ccc(-n2nc(C(F)(F)F)cc2-c2cccs2)cc1)N1CCCC1)c1ccc(Cl)cc1
Ki (ANPEP; enzyme activity, inhibitor; 30 min preincubation, 37 °C, together with: L-Leu-pNA): 1.95 µM

CCOC(=O)C1=CC(C)(C(=O)c2ccccc2)CCC1=O (stereo not drawn)
Ki (MAPK1; ligand displacement, FP): 144 µM

CC(C)(C)OC(=O)Nc1ccc(COc2ccccc2-c2cc(=O)n(C3CCCCC3O)cn2)cc1 (stereo not drawn)
ΔpEC50 of ACh (CHRM1; positive allosteric modulator, IP1 accumulation; CHO-M1 cells; 1 µM, 60 min, 37 °C, together with: ACh; baseline: ACh alone, higher = stronger potentiation): 1.24 ± 0.14 log units

N#Cc1cc(Cc2ccc3c(ccc4ccccc43)c2C#N)cc2c1ccc1ccccc12
Ki (ANPEP; enzyme activity, inhibitor; 30 min preincubation, 37 °C, together with: L-Leu-pNA): 2.9 µM

O=C(c1ccoc1)N1CCN(c2cc(-c3ccncc3)nc3cc(-c4cccc(Cl)c4)nn23)CC1
IC50 (ABCG2; JC-1 dye efflux, inhibitor, flow cytometry; ABCG2-overexpressing cells; together with: JC-1 1 µM): 1.46 ± 0.35 µM

O=C(O[C@@H]1Cc2c(O)cc(O)cc2O[C@@H]1c1cc(O)c(O)c(O)c1)c1cc(O)c(O)c(O)c1
Ki (Organic anion transporter 3 (Rattus norvegicus, UniProt Q9R1U7); transporter uptake, inhibitor): 56.5 µM

O=c1[nH]c(/C=C/c2cccc(O)c2O)c([N+](=O)[O-])c(=O)[nH]1
Ki (ribH; enzyme activity, inhibitor; pH 7.0): 12 ± 4 µM

CCN(CC)C(=O)Cn1c2ccccc2c2cc(-c3ccc(OC)cc3)ccc21
Ki (TSPO A147T; radioligand binding; together with: [3H]PK11195): 0.0934 ± 0.0146 µM

CCCCCCCCCCN(C)C
intrinsic clearance in vivo (Oncorhynchus mykiss; liver S9 substrate depletion; rainbow trout liver S9; tested individually): 331 mL/h/g liver

O=c1[nH]c(/C=C/c2ccccc2F)c([N+](=O)[O-])c(=O)[nH]1
Ki (ribH; enzyme activity, inhibitor; pH 7.0): 7.8 ± 4.6 µM

CCCCCCCCCCC=O
Ki (CYP2A6; inhibitor; 30 min, pH 7.4): 68 ± 7 µM
